Results gathered from unrelated publications.
Parts stem from different laboratories: compare values within a part only.

Study 1
Target: RNA binding protein fox-1 homolog 2, RRM domain, GST-SBP tag (RBFOX2, Homo sapiens, UniProt O43251-10, residues 100-194)
Technique: RNA Bind-n-Seq
Form: RNA
Medium: in vitro
Concentration: 365 nM
Notes: natural RNA segment, single round, ends assumed
Relative to: no-protein control
Reading: higher = stronger binding
Shared flanks, not repeated: GGGAGUUCUACAGUCCGACGAUC … UGGAAUUCUCGGGUGCCAA
Construct (chain): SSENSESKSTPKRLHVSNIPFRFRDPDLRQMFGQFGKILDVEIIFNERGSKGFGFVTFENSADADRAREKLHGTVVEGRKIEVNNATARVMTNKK
| Strand | RBNS enrichment (R) |
| --- | --- |
| ACCAAGUGCUGCGACUCAGCCAACAACUUACCACAUUCGGGGCUGGGAGCUGUUCUAAGAAAGGGACCUCCCUCUCCUUUUUAAAUUGGUGAGCCACAAAUUACAUUGAU | 0.422 |
| AGAGUGCUGCAGAGUCUAUGUCUGCUGACCACCUGUGCUACCACUUAACAAUGAGCAUAGCUGGUCUCAGCCAGGGCACUCAGCACCUUCCCUUAAGGAGCAAGAAGCGC | 0.233 |
| CAGGCAUUUCUACCAUAAUAUUGGAAUUGAACACAUUGGCUAAAUAAAGUUGAAAUUUUACUACCCAUGUCACUGCUGCUUUAUUUUGAGCUAAGGGAGCUGAGCUGAAA | 0.272 |
| GUCACAUGCAUUCUGUGGUGGCCAGCACUACGAAAUGCUACCUUCAAUAAACUGAACCUGCCACUCACUCAGCCUGCCUCUCCAUCCUCACGUGGCCCCGAGGGGAAGGG | 0.628 |
| ACAUUUUUUUUUAAAUGGUCACAUUUCGUGCUUCUCGGAUUUCUGAGGAAAUAUUUUGUAUUGUAUAUUACAAUGAUCACUGGCUGAAAAUAUUGUUUUACAAUAGUUCU | 0.497 |
| CUCAGCAUAUCAAGUUUAGGCAGCAAGGGAAAGGAAUAUGGGUCAGUUCUCAAAUGUCAAUGUAGAUAAGAGUCAUCUAGUAGAGAACUCAUCAGAGUGCGGAUUGCCAA | 1.02 |
| CUAAGGCAGCCUUCAGUCCCUAUCAGCGCCUCCUUUACUUCCCAGAGAACUUCACAGAGACUCUGUCCUUCCAUGCAAAGGCUUCCUGAAAUAGGGAGACUGACUGAGUA | 0.272 |
| AGGAUAGCCAGCUUGCUUCUCUGUUAUGUUACCAUGCAUUUCUAAAACCACUCCAGCUGUUAAUCUGUUUGCGCCUCCAUCCAUGGACUUGUUUCUGUUCUUUUCCAUCC | 0.562 |
| UCUAUCUCACUUCACUGUGAGGGGAAGACCUUCUCAUGGGAACUCUCCAAAUACCAUUCAAGUGCCUCUUGUUGAAAGAUUCCUUCAUGGUGGAAGGGGGUGCAUGUAUG | 1.15 |
| CUCUUUAUGCUGCAAAGACCUGGAUGAUGUUUGGUAACUAUAGAAAAAUAGAAAUUACACUCAGGAUCACUGUUACUGCUAUUGCCACUGAUGAUUCCUGCAAAAAUAUA | 0.608 |
| CAUCUUACUAAAAGCGUCUUAAAAUGACCAAUUCCAGAAUCAAGCGUAUUCCGUUUUCUUCCUGCAUGAUCCCUGGGCCCUCCCGCAGGCUGAGCAAGUCUGUAAACUGA | 0.835 |
| AGUGGAAUUUUCUAACAAAAUAAACUUGCUCAUUUGGUCCGUUUUCUGUAACUUUUGCUAAACACUUUAUACAUUUUUAAUGUUGAAAAGCAGUGUCUCCUGCCAGAACU | 0.304 |

Study 2
Target: RING finger protein unkempt homolog, zinc fingers 1-6, GST-SBP tag (UNK, Homo sapiens, UniProt Q9C0B0, residues 30-357)
Technique: RNA Bind-n-Seq
Form: RNA
Medium: in vitro
Concentration: not given
Notes: RNA with constant flanks, human and mouse sites, ends assumed
Relative to: input RNA pool
Reading: higher = stronger binding
Shared flanks, not repeated: GGGAGUUCUACAGUCCGACGAUC … CAACAGAGGAUUGAGCAUCA
Residues (chain): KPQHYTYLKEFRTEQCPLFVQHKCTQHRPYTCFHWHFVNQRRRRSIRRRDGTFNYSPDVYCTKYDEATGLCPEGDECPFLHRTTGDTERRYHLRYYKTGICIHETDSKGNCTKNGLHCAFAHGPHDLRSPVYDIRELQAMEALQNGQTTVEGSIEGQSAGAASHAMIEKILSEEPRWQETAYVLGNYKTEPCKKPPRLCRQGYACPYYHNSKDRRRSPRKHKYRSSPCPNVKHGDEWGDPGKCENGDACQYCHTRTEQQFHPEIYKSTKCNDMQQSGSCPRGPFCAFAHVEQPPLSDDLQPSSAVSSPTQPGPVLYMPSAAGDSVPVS
| Strand | bound/input enrichment |
| --- | --- |
| AUGUCUGAGGGCUGUUUUUCAUUUGGCAUCUUGAUCACUGCAGAAGUGAAUUCACCAUGGCUGGAAUCUUACCUAUCUCAGGGUAUGGCCUCUCUUGUUCAAGCUUUCUACCUGACUGCU | 0.204 ratio |
| UUACAGAAACCCAGUGUGGCUCAUUUUGGAUCUGAAAAAUCAAACCUGUACAAGUUUACUGCUAGUGCCUCACAUACAGAGAGAAAACUGAAACAGGCAAUAAACUAUUCAAAAAGUUUA | 0.157 ratio |
| AGUACAGACUGAGAUUUGAAGGAAACAUGCACAAAUCUGUAAAACAUAGACCUUCGCUUUAUUUUUGUAAGUAUCACCUGCCACCAUGUUUUGUAAUUUGAGGUCUUGAUUUCACCAUUG | 0.242 ratio |
| GAGAAGGUUCUGUCUCCUUUACGCAGUCCUCCCCUUCUUGGAUCUGAGUCCCCAUAUGAAGACUUCCUGAGUGCUGAUAGCAAGGUUCUUGGCAGACGUUCCGAAAGCCCCUUUGAAGGG | 0.126 ratio |
| UCAAUAACCUUUUCAGAUGAAAACGAUGAUCAGGAUUUUGAAUUAUGGGAUGAUGUAGGAUUAAACAUUCCAAAACCUCCAGACUUAUUGCAACUCUACCGGGAUUUUGGAAAUCAUCAA | 0.0768 ratio |
| AUUAUCACAGAAGAACCUGAGAUUGGCAAUAUAGAAAAACCAGUAGAAAUUUUUCAUAUAAUAGAACAUUUUUGUCUUGGUAGAAGACGCCUUCAUCUCUUUGGGAGAGAUAGCACUAUC | 32.2 ratio |
| UUACAGUCAUUGAUGGACUCUAUUUUUUUAUUAUUACUUGGACCUUGGUCGUUUUUAUACUAGCAAAAAAAUGUCUUGUUUUAAUUUGUGUUUUUUGGGGGGGCGGGUGGGCGGGCGGGA | 5.17 ratio |
| UCCGAGUCUUAGGAGGACGAACAUUCAAAGGACAGAUUCCAAUGUGGUGUGCCGUGCACAUCGGGAGCGGCUGGGGUUUGCACUUCGAGAUUUCUUCUAUAUAAUUUUUUUUUUUAAACG | 4.01 ratio |
| AUUGAAAUAAAAGUAUUAUCAGAACUUGGUAGAGAAGCUCAGAAUCUUUCAGCUAUGGAAAUUAGAAAGAAAGCUAGAUCAUUUGCUAAAGCAGCCAUUGAGAAACAGAAAUCAGCAUUU | 0.983 ratio |
| GGACGGUGCUGGUUUUCUACCUGCUUACUCUUGUUCUCACAGGCAGGGGACCAGCAACCCUAGAUAUUUCUGGAACUUCUUUGACCUGGAAGGAACCUUUGGGAGCUGUGACUCCCUGUG | 0.397 ratio |
| CUCAGUGCUGGCUCCAGUGAGAGCUGUGGAGGUCUCUUGCCUUCUCCAGGUUGGGUUUCUCUGUUUUUGUGGUCGGAUAGUCAUGGCUCUUGUCCCUGAAGCUCUGUAUUGUGCCUCCUG | 0.3 ratio |

Study 3
Target: Histone acetyltransferase KAT6A, both winged helices, GST fusion (KAT6A, Homo sapiens, UniProt Q92794, residues 1-181)
Technique: protein binding microarray
Form: double-stranded DNA, one strand shown
Medium: in vitro
Concentration: not given
Notes: 8-mer, flanks averaged, mean of 2 arrays, mostly near background
Relative to: not given
Reading: higher = stronger binding
Target sequence (chain): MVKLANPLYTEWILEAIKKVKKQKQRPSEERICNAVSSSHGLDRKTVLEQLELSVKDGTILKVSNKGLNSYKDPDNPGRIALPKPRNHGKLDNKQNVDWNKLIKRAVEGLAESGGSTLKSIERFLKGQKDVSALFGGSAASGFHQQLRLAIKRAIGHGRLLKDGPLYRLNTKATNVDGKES
| Strand | E-score |
| --- | --- |
| TAACTCCA | -0.112 |
| AGGAAATA | -0.142 |
| CGCACCTA | 0.0347 |
| CCGACACA | -0.0556 |
| CGCGCAAC | 0.385 |
| AGAATCCT | -0.202 |
| ACCTCTCA | -0.0507 |
| ATATTGTA | 0.0386 |
| ACCTGGCT | -0.109 |
| GATCAACA | -0.123 |
| ACAAGTCG | -0.0872 |
| AACGAGGG | -0.178 |
| TACCGTGA | 0.11 |
| ACTCGATA | -0.0704 |
| ACCAGCGG | 0.235 |
| CATAGGAG | -0.121 |
| ACTAGGGG | -0.152 |
| AACGGGCA | 0.228 |
| AGCTTGAT | -0.0485 |
| ACTCCAAT | -0.104 |
| AAGAATTA | -0.0872 |
| AAGGACTC | -0.0124 |
| CTCCCTCC | -0.12 |
| AACCTACA | -0.103 |
| CAGTCGTC | -0.118 |

Study 4
Target: Ras GTPase-activating protein-binding protein 1, RRM domain (G3BP1, Homo sapiens, UniProt Q13283)
Chain of UniProt Q13283 (whole entry, looked up): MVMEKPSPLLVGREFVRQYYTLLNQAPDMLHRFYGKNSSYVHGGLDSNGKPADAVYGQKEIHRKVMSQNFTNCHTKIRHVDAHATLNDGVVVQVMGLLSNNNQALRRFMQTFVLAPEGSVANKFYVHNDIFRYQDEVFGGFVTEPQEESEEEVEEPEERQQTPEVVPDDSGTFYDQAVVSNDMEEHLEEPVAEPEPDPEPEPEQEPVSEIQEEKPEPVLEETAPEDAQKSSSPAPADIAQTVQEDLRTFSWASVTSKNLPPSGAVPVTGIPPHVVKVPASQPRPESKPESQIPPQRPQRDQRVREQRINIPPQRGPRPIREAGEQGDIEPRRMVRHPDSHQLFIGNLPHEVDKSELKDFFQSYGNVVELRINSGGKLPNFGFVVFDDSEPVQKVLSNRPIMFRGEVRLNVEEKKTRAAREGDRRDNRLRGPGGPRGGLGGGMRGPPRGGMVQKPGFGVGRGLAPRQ
Technique: RNA Bind-n-Seq
Form: RNA
Medium: in vitro
Concentration: 1 µM
Notes: whole 134-nt RNA, ends assumed
Together with: 150 mM KCl
Relative to: input library
Reading: higher = stronger binding
Shared flanks, not repeated: GGGAGUUCUACAGUCCGACGAUC … UGGAAUUCUCGGGUGUCAAGG
| Strand | log2 enrichment |
| --- | --- |
| UCAAGUCCUGUGCUACACAUCGUAUGUACCGAAUCGGGAAAAAGGGAGGGUGGGAAAGUAUUAUGUUACGCCGUUCGGAUCUGCACUUCC | 0.666 |
| CCUGUGCUACACAUCGUAUGUACCGAAUCGGGGUUUGGGGAAAAAAAGGGGUUUUUGGGGAAAGUAUUAUGUUACGCCGUUCGGAUCUGC | 0.948 |
| CUCAAGUCCUGUGCUACACAUCGUAUGUACCGAAUCGGGGUGGGGUGGGGUGGGAAAGUAUUAUGUUACGCCGUUCGGAUCUGCACUUCC | 0.196 |
| UUUGUCCCUGCUCAGGAUGAGACUUCUGUGAGCAGCGAGGAUUUUGAUAUGAGCGACUCCACAUGGAUGUCAGCUGACCCGCACCUGGCC | 0.0549 |
| AAGUCCUGUGCUACACAUCGUAUGUACCGAAUCGGUUUUUUUGGAAAGGUUUUUGGAAAGUAUUAUGUUACGCCGUUCGGAUCUGCACUU | -0.428 |
| CAAGUCCUGUGCUACACAUCGUAUGUACCGAAUCGGGGUUGGGGUUGGGGUUGGGGAAAGUAUUAUGUUACGCCGUUCGGAUCUGCACUU | 1.04 |
| AGUCCUGUGCUACACAUCGUAUGUACCGAAUCGGGGAGGGGUUUUUGGGGUUUGGGGAAAGUAUUAUGUUACGCCGUUCGGAUCUGCACU | 0.419 |
| ACCAUGCACGUGGGCAUCUUUGGGAAGUGGGGCAAGGGGGGGAUAGGGAGGGGGGUAACACUUUGGGAACAGGUGGUCCCAGGUCGUUUC | -0.559 |
| UCAAGUCCUGUGCUACACAUCGUAUGUACCGAAUCGGUUUUUGGAAAAAGGAGGAAAGUAUUAUGUUACGCCGUUCGGAUCUGCACUUCC | -0.117 |
| AAGUCCUGUGCUACACAUCGUAUGUACCGAAUCGGAAAAAAAGGAGGAAAAAAAGGAAAGUAUUAUGUUACGCCGUUCGGAUCUGCACUU | -0.0682 |
| GUCCUGUGCUACACAUCGUAUGUACCGAAUCGGGGUUUUUGGGGUUUGGGGUUUGGGGAAAGUAUUAUGUUACGCCGUUCGGAUCUGCAC | 1.88 |
| CCUGUGCUACACAUCGUAUGUACCGAAUCGGGCCCCCCGGGGCCCCCCGGGCCCCCCGGGGAAAGUAUUAUGUUACGCCGUUCGGAUCUG | -0.654 |
| AGUCCUGUGCUACACAUCGUAUGUACCGAAUCGGGUUUUUGGGGUUUUUGGUUUUUGGAAAGUAUUAUGUUACGCCGUUCGGAUCUGCAC | -0.194 |
| UCAAGUCCUGUGCUACACAUCGUAUGUACCGAAUCGGGUUUGGGAGGGAAAGGGAAAGUAUUAUGUUACGCCGUUCGGAUCUGCACUUCC | 0.753 |

A few entries again (study 3):
| Strand | E-score |
| --- | --- |
| ACTAGGGG | -0.152 |
| AACGGGCA | 0.228 |
| AGCTTGAT | -0.0485 |
| ACTCCAAT | -0.104 |
| AAGAATTA | -0.0872 |
| AAGGACTC | -0.0124 |
| CTCCCTCC | -0.12 |
